Measurements of several laboratories.
Protocols differ between the studies behind these lines. ± marks the error that the study gave.

SMILES | test | test system | setting | scale | endpoint | result
C=CC(=O)Nc1cc(Nc2nccc(-c3cn(C)c4ccccc34)n2)c(OC)cc1N(C)CCN(C)C | storage stability | human dried blood spots | 72 h, -80 °C, high QC level |  | recovery | 99.9%
COc1cc(Nc2ncc3c(n2)-c2ccc(Cl)cc2C(c2c(F)cccc2OC)=NC3)ccc1C(=O)O | measured: Alopecia, grade 2 | cancer patients, phase 1/2 | oral, dose not given, added: pembrolizumab |  | patients with adverse event | 8%
Cc1ccc(O)c(-n2nc3ccccc3n2)c1 |  | human aged 16-21 years | concentration not given, foundation, 95th percentile |  | daily dermal exposure dose | 427 ng/kg/day
Cl.[2H]C([2H])([2H])CC(=O)c1cnc(NC(=O)C2CC2)cc1Nc1cccc(-c2ncn(C([2H])([2H])[2H])n2)c1OC | median | human | oral, 50 mg single dose, fasted, liquid |  | Tmax | 1 h
CO[C@H]1C[C@@H]2CC[C@@H](C)[C@@](O)(O2)C(=O)C(=O)N2CCCC[C@H]2C(=O)O[C@H]([C@H](C)C[C@@H]2CC[C@@H](O)[C@H](OC)C2)CC(=O)[C@H](C)/C=C(\C)[C@@H](O)[C@@H](OC)C(=O)[C@H](C)C[C@H](C)/C=C/C=C/C=C/1C |  | healthy adult horses | oral, 0.06 mg/kg, 1 h |  | rectal temperature | 36.8 ± 0.3 °C
FC(F)(F)c1ccc(CNc2ccc(Cc3c[nH]c4ncc(Cl)cc34)cn2)cn1 | measured: Hypertension | patients with advanced solid tumours | oral, dose not given, grade 1 and 2, possibly related to drug |  | adverse event incidence | 13%
COc1ncc(-c2nc3c(n2C(C)C)[C@H](c2ccc(Cl)cc2)N(c2cc(Cl)cn(C)c2=O)C3=O)c(OC)n1 |  | human patients, plasma | oral, 45 mg, low-dose arm, cycle 2 day 1 |  | median half-life | 13.5 h
Cc1nc2cccc(OCC(C)(C)C(=O)NC(C)C)c2c(N)c1C(=O)O |  | Sprague-Dawley rat, female, plasma | oral, 100 mg/kg, day 7 over day 1, 7-day repeated dosing | reference: day 7 over day 1 | Cmax ratio | 0.71 ± 0.38
CCc1cc(C(=O)NC)c2nccc(N3CCc4c(cc(Cn5ccnc5)cc4-c4cn(C)nc4C(F)(F)F)C3=O)c2c1 |  | Sprague Dawley rats | oral, 50 mg/kg once daily, 7 days |  | mean platelet volume | 8.15 ± 0.13 fL
C[C@H](CCC(=O)NCC(=O)O)[C@H]1CC[C@H]2[C@@H]3[C@H](O)C[C@@H]4C[C@H](O[C@@H]5O[C@H](C(=O)O)[C@@H](O)[C@H](O)[C@H]5O)CC[C@]4(C)[C@H]3CC[C@]12C |  | human, plasma | endogenous baseline diurnal | reference: daily mean concentration | relative peak deviation | 87.4 ± 14.4%
CNCc1ccc(-c2[nH]c3cc(F)cc4c3c2CCNC4=O)cc1 |  | human patients | oral, 600 mg twice daily, grade 1 |  | diarrhoea incidence | 15.4%
C[C@@H](Oc1ccc(S(C)(=O)=O)cc1C(=O)N1C[C@@H]2C[C@]2(c2cc(C(F)(F)F)on2)C1)C(F)(F)F |  | human | oral, 25 mg |  | subjects with nervous system disorders | 66.7%
CCOc1c([C@H](C)n2nc(C)c3c(N)ncnc32)cc(Cl)c(F)c1[C@@H]1CNC(=O)C1 |  | human, DLBCL, plasma | oral, 30 mg, day 15, geometric mean |  | Cmax | 3.77 µM
Cn1cc([C@H]2C[C@H]3CSC(N)=N[C@@]3(c3ccc(F)cc3F)CO2)cn1 |  | male 129/SVE mouse, CSF | subcutaneous, 10 mg/kg, 6 h |  | CSF concentration | 33 nM
COc1ccc([C@@H](O)c2cc(-c3ncnc4cc(N5CCOCC5)ccc34)c(F)cc2Cl)nn1 |  | locally advanced rectal cancer patients | 250 mg, added: capecitabine and radiotherapy |  | blood lymphatic disorder TEAE | 67%
CCO[C@H]1CCN(Cc2c(OC)cc(C)c3[nH]ccc23)[C@H](c2ccc(C(=O)O)cc2)C1 |  | PNH patients, active haemolysis | oral, 200 mg, 8 weeks, treatment |  | incidence of cough | 0%
COc1ccccc1OCCNCC(O)COc1cccc2[nH]c3ccccc3c12 (stereo not drawn) |  | 0.2% w/v mucin | 8 h |  | steady-state concentration | ~140 µg/mL
O=C(Nc1nc2cccc(-c3ccc(CN4CCS(=O)(=O)CC4)cc3)n2n1)C1CC1 | measured: vertigo | rheumatoid arthritis patients | oral, 150 mg once daily, 4 weeks, any relatedness |  | treatment-emergent adverse events | 0%
CN(C(=O)C(C)(C)c1cc(C(F)(F)F)cc(C(F)(F)F)c1)c1cnc(N2C[C@H]3COCCN3C[C@H]2CO)cc1-c1ccc(F)cc1[14CH3] |  | healthy men, urine and feces | oral, 120 mg, from 288 h, per 24 h collection | reference: dose | radioactivity recovered per interval | 0.2 to 0.58%
CC(C)NCCCC[C@@H]1NC(=O)[C@H](Cc2ccc(O)cc2)NC(=O)[C@H](Cc2ccccc2)NC(=O)CC[C@H](C(=O)N[C@@H](CCCCNC(C)C)C(=O)N[C@@H](CCCCNC(=O)[C@H](CCC(=O)O)NC(=O)[C@H](CCC(=O)O)NC(=O)[C@H](CCC(=O)O)NC(=O)CN2CCN(CC(=O)O)CCN(CC(=O)O)CCN(CC(=O)O)CC2)C(N)=O)NC(=O)CNC(=O)[C@H](Cc2ccc3ccccc3c2)NC(=O)[C@@H](CCCNC(=N)N)NC1=O [gallium-68 labelled] |  | mouse with Daudi xenograft, liver | intravenous, 2 h |  | tissue uptake | 0.54 %ID/g

SMILES | test | test system | setting | scale | endpoint | result
CN[C@H](CC(C)C)C(=O)N[C@H]1C(=O)N[C@@H](CC(N)=O)C(=O)N[C@H]2C(=O)N[C@H]3C(=O)N[C@H](C(=O)N[C@H](C(=O)O)c4cc(O)cc(O)c4-c4cc3ccc4O)[C@H](O)c3ccc(c(Cl)c3)Oc3cc2cc(c3O[C@@H]2O[C@H](CO)[C@@H](O)[C@H](O)[C@H]2O[C@H]2C[C@](C)(N)[C@H](O)[C@H](C)O2)Oc2ccc(cc2Cl)[C@H]1O | Welch's t-test | C57BL/6N mice, faeces | oral, 1 vs 20 mg/mL | reference: high dose over low dose | dose-normalised AUC | no effect
NC(=O)N1c2ccccc2C=Cc2ccccc21 | measured: dry mouth | human male | oral, dose not given, CTCAE on-treatment AEs |  | adverse events incidence | 0%
CCn1cc(C(=O)N2CCOCC2)c(=O)c2cc(NC3Cc4ccccc4C3)cnc21 |  | human, fasted | oral suspension, 50 mg single dose, median |  | Tmax | 1.5 h
Cc1cc(NC2CCN(C(=O)OC3CCN(C(=O)/C=C/CN(C)C)C3)CC2)n2ncc(C(C)C)c2n1 (stereo not drawn) | Phase I dose escalation CTCAE v4.0, measured: Arthralgia | patients with advanced solid tumours | dose not given, all dose schedules any grade |  | patients with adverse event | 9%
Cc1ccc(Sc2ccccc2N2CCNCC2)c(C)c1 | measured: Headache | healthy adult men | oral, 2.5 mg single dose |  | participants with TEAE | 0%
Nc1nnc(-c2cccc(Cl)c2Cl)c(N)n1 |  | human, plasma | outliers excluded | reference: baseline | QRS change slope | 0.0179 % per µg/mL
CC(C)(C)c1ccc(O)c(CN(Cc2cc(C(C)(C)C)ccc2O)C2CCC(NC(N)=O)CC2)c1 (stereo not drawn) |  | C57BL/6 mice, male, brain | intraperitoneal, 10 mg/kg, single dose |  | dose-normalised Cmax | 107 ng/g per mg/kg
CCc1nc(C(N)=O)c(Nc2ccc(N3CCC(N4CCN(C)CC4)CC3)c(OC)c2)nc1NC1CCOCC1 |  | Japanese patients, plasma | oral, 300 mg, cycle 0 day -2, single dose, median |  | Cmax | 292 ng/mL
CC(C)n1c(Nc2cccnc2)nc2cnc(Nc3ccc(N4CCN(C)CC4)cc3)nc21 | measured: white blood cell count elevated | healthy male subjects | oral, 100 mg, study, added: itraconazole |  | subjects with adverse event | 0%
NC1(C(=O)N[C@@H](CCO)c2ccc(Cl)cc2)CCN(c2nc[nH]c3nccc2-3)CC1 |  | metastatic CRPC patients | 400 mg b.i.d., grade 3 to 4, treatment-related, added: enzalutamide 160 mg daily |  | incidence of Dysgeusia | 0%
Cc1cc(-c2nccc3c2ccn3CC(=O)Nc2ccc(-c3cnccn3)cn2)ccn1 |  | healthy human volunteers | oral, 40 mg single dose, single ascending dose |  | nervous system TEAEs | 16.7%
CC(C)Oc1c(NC(=O)c2ccc(NC(=O)[C@H](CC(N)=O)NC(=O)c3ccc(NC(=O)c4ccc(C#N)cc4)cc3)cc2)ccc(C(=O)N/N=C/c2ccc(C(=O)O)cc2)c1O | absorbance | DMSO | 40 °C, PSS to ground state relaxation |  | thermal half-life | 1.2 h
CCN1/C(=C/C(C)=O)Sc2ccc(F)cc21 |  | cynomolgus monkey | oral, 30 mg/kg, 1 h post-dose |  | PR interval | 91 ± 4 ms
COc1cccc(OC)c1-c1cc(C(=O)NC2(C(=O)O)C3CC4CC(C3)CC2C4)nn1-c1ccc(C(=O)N(C)CCCN(C)CCCN(C)C(=O)CN2CCN(CC(=O)[O-])CCN(CC(=O)[O-])CCN(CC(=O)[O-])CC2)cc1C(C)C.[177Lu+3] (stereo not drawn) |  | mouse HT-29 xenograft | 4 h, biodistribution | reference: tumour over spleen | tumour-to-spleen ratio | 7.35
C[C@H](CCC(=O)NCCS(=O)(=O)O)[C@H]1CC[C@H]2[C@@H]3CC[C@@H]4C[C@H](OS(=O)(=O)O)CC[C@]4(C)[C@H]3CC[C@]12C |  | human, plasma | endogenous baseline diurnal | reference: daily mean concentration | relative peak deviation | 76.4 ± 11.1%
CN1CCN(c2cccc3c2CCN(C(=O)/C=C/c2c(-n4cnnn4)ccc(Cl)c2F)[C@@H]3C(=O)Nc2ccc(C(=O)O)cc2)C(=O)C1 |  | healthy human subjects | intravenous infusion, 1 mg/h, 5 days |  | subjects with serious adverse event | 0%
O=C(Nc1ccc(OC(F)(F)Cl)cc1)c1cnc(N2CC[C@@H](O)C2)c(-c2ccn[nH]2)c1 | per laboratory record, measured: absolute neutrophil decrease | human patients | oral, dose not given, dose-finding study |  | grade ≥3 event rate | 4%
Cn1cc(Nc2nccc(-c3ccc4c(c3)CN(C3COC3)CC[C@H]4NC(=O)c3cn(C(C)(C)C)nn3)n2)cn1 | measured: transitional B cells | human, clinical trial, whole blood | 150 mg twice daily, follow-up |  | percent change from baseline | -55.2%
O=C(/C=C/CCc1ccc(O)cc1)/C=C/c1ccc(O)cc1 |  | nude mouse MCF7 xenograft | 10 mg/kg, day 4 |  | body weight | 19.5 ± 1.36 g

Excerpt of the above:
SMILES | test | test system | setting | scale | endpoint | result
Cl.[2H]C([2H])([2H])CC(=O)c1cnc(NC(=O)C2CC2)cc1Nc1cccc(-c2ncn(C([2H])([2H])[2H])n2)c1OC | median | human | oral, 50 mg single dose, fasted, liquid |  | Tmax | 1 h
CO[C@H]1C[C@@H]2CC[C@@H](C)[C@@](O)(O2)C(=O)C(=O)N2CCCC[C@H]2C(=O)O[C@H]([C@H](C)C[C@@H]2CC[C@@H](O)[C@H](OC)C2)CC(=O)[C@H](C)/C=C(\C)[C@@H](O)[C@@H](OC)C(=O)[C@H](C)C[C@H](C)/C=C/C=C/C=C/1C |  | healthy adult horses | oral, 0.06 mg/kg, 1 h |  | rectal temperature | 36.8 ± 0.3 °C
FC(F)(F)c1ccc(CNc2ccc(Cc3c[nH]c4ncc(Cl)cc34)cn2)cn1 | measured: Hypertension | patients with advanced solid tumours | oral, dose not given, grade 1 and 2, possibly related to drug |  | adverse event incidence | 13%
COc1ncc(-c2nc3c(n2C(C)C)[C@H](c2ccc(Cl)cc2)N(c2cc(Cl)cn(C)c2=O)C3=O)c(OC)n1 |  | human patients, plasma | oral, 45 mg, low-dose arm, cycle 2 day 1 |  | median half-life | 13.5 h
